Published values from different studies.
Every numbered part comes from another study and shows a few of its results, in no order.

Series 1
Target: Replicase polyprotein 1ab, nsp13 helicase (rep, Severe acute respiratory syndrome coronavirus 2, UniProt P0DTD1)
Mode: inhibitor
Concentration: 20 µM
Measurement: inhibition
Structure (SMILES) = CC(C)[C@H]1c2ccc(F)cc2CC[C@@]1(CCN(C)CCCc1nc2ccccc2[nH]1)OC(=O)C1CC1; value = 1.86%
Structure (SMILES) = Cc1ccc2c(-c3ccccc3)nc(=O)n(C(C)C)c2c1; value = 6.2%
Structure (SMILES) = COc1cc(/C=C/C(=O)O)ccc1O; value = 4.55%
Structure (SMILES) = COc1ccc2cc(-c3nc(-c4ccc([S+](C)[O-])cc4)[nH]c3-c3ccncc3)ccc2c1 (stereo not drawn); value = 3.64%
Structure (SMILES) = CCC[C@@H](NC(=O)N1C(=O)C(CC)(CC)[C@@H]1Oc1ccc(C(=O)N2CCN(C)CC2)cc1)c1ccc2c(c1)OCO2; value = 2.25%
Structure (SMILES) = N#CC(c1ccccc1)(c1ccccc1)c1ccccc1Cl; value = 8.72%
Structure (SMILES) = COc1c(O)cc2c(c1O)[C@@H]1O[C@H](CO)[C@@H](O)[C@H](O)[C@H]1OC2=O; value = -25.8%
Structure (SMILES) = CCOc1cc(CC(=O)N[C@@H](CC(C)C)c2ccccc2N2CCCCC2)ccc1C(=O)O; value = 5%
Structure (SMILES) = COc1ccc(-c2ccc(=N)n(CCCC(=O)O)n2)cc1; value = 8.8%
Structure (SMILES) = CCC(C(=O)O)c1ccc(CC(C)C)cc1 (stereo not drawn); value = 4.28%
Structure (SMILES) = CC(C)=CCC/C(C)=C/CNCCNC1C2CC3CC(C2)CC1C3 (stereo not drawn); value = 5.9%
Structure (SMILES) = O=C(Cn1ccnc1[N+](=O)[O-])NCCO; value = 3.94%
Structure (SMILES) = CNC(=O)c1cc(Oc2ccc(NC(=O)Nc3ccc(Cl)c(C(F)(F)F)c3)c(F)c2)ccn1; value = 2.18%
Structure (SMILES) = O=[N+]([O-])c1cc(Cl)ccc1S(=O)(=O)N1CCN(Cc2ccccc2)CC1; value = 8.11%
Structure (SMILES) = c1ccc(-c2oc3ncnc(NC[C@@H]4CCCO4)c3c2-c2ccccc2)cc1; value = -2.13%
Structure (SMILES) = O=C(c1cc(S(=O)(=O)Nc2ccccc2F)c(F)cc1Cl)N1CCN2CCC[C@@H]2C1; value = -0.06%
Structure (SMILES) = CCCC(=O)C1(c2ccccc2)CCN(C(=O)[C@@H](Cc2ccc(OC)cc2)NC(=O)[C@@H](N)Cc2cncn2C)CC1; value = 0.07%
Structure (SMILES) = Cc1ccc2nc(NCCN)c3ncc(C)n3c2c1; value = 16.1%
Structure (SMILES) = CN1[C@@H]2C[C@@H](OC(=O)[C@H](CO)c3ccccc3)C[C@H]1[C@@H]1O[C@@H]12; value = 5.16%

Series 2
Target: Ras GTPase-activating protein-binding protein 1, full length (G3BP1, Homo sapiens, UniProt Q13283)
Chain of UniProt Q13283 (whole entry, looked up): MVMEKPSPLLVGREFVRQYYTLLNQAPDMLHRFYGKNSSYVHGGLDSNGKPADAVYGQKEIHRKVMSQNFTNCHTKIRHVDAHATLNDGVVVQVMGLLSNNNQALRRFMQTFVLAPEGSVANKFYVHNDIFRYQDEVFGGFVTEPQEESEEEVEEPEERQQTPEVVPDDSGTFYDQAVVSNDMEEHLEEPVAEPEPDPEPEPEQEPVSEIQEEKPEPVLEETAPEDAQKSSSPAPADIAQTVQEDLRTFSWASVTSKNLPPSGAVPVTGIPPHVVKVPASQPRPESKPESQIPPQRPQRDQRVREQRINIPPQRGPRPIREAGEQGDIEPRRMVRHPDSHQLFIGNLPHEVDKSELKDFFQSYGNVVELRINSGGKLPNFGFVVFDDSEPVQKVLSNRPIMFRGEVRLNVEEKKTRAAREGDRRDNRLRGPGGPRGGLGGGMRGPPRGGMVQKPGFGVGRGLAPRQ
Method: RNA Bind-n-Seq
Form: RNA
Sample: in vitro
Concentration: 200 nM
Notes: whole 134-nt RNA, ends assumed
Added: 150 mM KCl
Reference: input library
Reading: higher = stronger binding
Measurement: log2 enrichment
Constant ends, left off below: GGGAGUUCUACAGUCCGACGAUC … UGGAAUUCUCGGGUGUCAAGG
Sequence = UGGGAGGUGGAUUUUGUUUAUUUUUUUACCUCAUUUCCAGGGGUGGGAAUUUUUUUUUAAUAUGUGUCAUGAAUAAAGUUGUUUUUGAAA; value = -0.231
Sequence = AGUCCUGUGCUACACAUCGUAUGUACCGAAUCGGCCCCCGGGCCCCCGGCCCCCGGGAAAGUAUUAUGUUACGCCGUUCGGAUCUGCACU; value = -0.859
Sequence = UCAAGUCCUGUGCUACACAUCGUAUGUACCGAAUCGGUUUUUUUGGUUUGGUGGAAAGUAUUAUGUUACGCCGUUCGGAUCUGCACUUCC; value = -0.904
Sequence = CAAGUCCUGUGCUACACAUCGUAUGUACCGAAUCGGGUUUUUGGGUUUGGGUGGGAAAGUAUUAUGUUACGCCGUUCGGAUCUGCACUUC; value = 0.497
Sequence = AGUCCUGUGCUACACAUCGUAUGUACCGAAUCGGGAAAAAAAGGGAAAGGGAAAGGGAAAGUAUUAUGUUACGCCGUUCGGAUCUGCACU; value = -0.124

Series 3
Target: RNA binding protein fox-1 homolog 2, RRM domain, GST-SBP tag (RBFOX2, Homo sapiens, UniProt O43251-10, residues 100-194)
Method: RNA Bind-n-Seq
Form: RNA
Sample: in vitro
Concentration: 365 nM
Notes: natural RNA segment, single round, ends assumed
Reference: no-protein control
Reading: higher = stronger binding
Measurement: RBNS enrichment (R)
Constant ends, left off below: GGGAGUUCUACAGUCCGACGAUC … UGGAAUUCUCGGGUGCCAA
Target sequence (chain): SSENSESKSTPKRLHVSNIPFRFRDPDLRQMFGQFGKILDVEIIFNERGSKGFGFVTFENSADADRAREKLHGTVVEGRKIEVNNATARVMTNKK
Sequence = CUCCAAGAGAUGAGGCCUCAGUCCAGAACCCAUCUUCAUACAAAAGCUUCAGUAGCCUGUAGGCGGCUGUACUUGGAACAGACAUUUGGCUGCCAGUAGCAGGCCUGGCA; value = 0.489
Sequence = GACCAUACUGCUUACGUCUUAGCCAUUCCGUCCUGCUCCCCAGCUCACUCUCUGAAGCACACAUCAUUGGCUUUCCUAUUUUUCUGUUCAUUUUUUAAUUGAGCAAAUGU; value = 0.473
Sequence = UUCUUUUGAAUGGAUUUAUGCUGUCUUAGCAAUAUGACAAUAAUCCUCUGUAGCUUGAGCUACCCCUCCCCUGCUGUAACUUACGUGACCUGUGCUGUCACUGGGCAUAG; value = 0.328
Sequence = CGAAGGGCGUGUGGCCAUCGUGUCAGCAGAGAGAGUCUCUGUACACAGCCCCGUGAACCCUGAGGAGUGGAGUCAUACGCGAAGGGUGUGUGGCCAGGCUGCAGAGCUGC; value = 0.381
Sequence = UGAAGAGCAUGGAGGGGGAGCCUCAGAGCUGACAGUCCUGCUUAGAGCCCUUAAAAAGACUUGAAAGUUCACUGGGACUCAGUUUACCUUAAUGCCUUAGCAGAAGAUAA; value = 1.07
Sequence = GGCAUGAAGUGAACACAAAUUCUGCAAAGAAUUUUUUUGAUAUUGGCAAUAAUCAACAAUCUUCCAGAUUUGCACAAAAAGAUCUUGAAAUUUGAUGCAUAACUUUUAAG; value = 0.78
Sequence = AUGGGGGCGACUGGGGAGUCCUCAUUGAAUCCUCAUUUUAUACCCAAAACCCUGAAGCCAUUGGAGAGCUGUCUUCCUGUGUACCUCUAGAAUCCCAGCAGCAGAGAACC; value = 0.58
Sequence = AAUCUUUUCUGGUUCUUUACAGUUUGUUGUUUUGUUUUGAUCCAAGCUUAGUUUGUUACUAUGUGUGAUUUAGCAUCUGUCGCACUUGUGUAAAUAUGGAGUAAGUAUUG; value = 14.6

Series 4
Target: Histone acetyltransferase KAT6A, winged helix 2, GST fusion (KAT6A, Homo sapiens, UniProt Q92794, residues 85-181)
Method: protein binding microarray
Form: double-stranded DNA, one strand shown
Sample: in vitro
Concentration: not given
Notes: 8-mer, flanks averaged, mean of 2 arrays, mostly near background
Reference: not given
Reading: higher = stronger binding
Measurement: E-score
Construct (chain): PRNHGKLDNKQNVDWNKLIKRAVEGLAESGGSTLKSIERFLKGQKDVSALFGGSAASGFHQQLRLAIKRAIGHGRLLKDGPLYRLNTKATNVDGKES
Sequence = CACGCCTA; value = -0.162
Sequence = TACCCTAA; value = -0.118
Sequence = CTTTTGGA; value = 0.0799
Sequence = AAAAGCGT; value = -0.0581
Sequence = CGTAAACC; value = -0.237
Sequence = CGGGTCCA; value = -0.0136
Sequence = CTCGAGAG; value = -0.0154
Sequence = AGAACATA; value = -0.104

Mixed results
Cell line: HEK-293T
Organism: VSV pseudotyped with SARS-CoV-2 spike
Concentration: 10 µM
Time: 16 h
Structure (SMILES) = Nc1nc2c(ncn2COCCO)c(=O)[nH]1; effect on = pseudovirus infection; method = FDA-approved drug library screen; reference = vehicle-treated; measurement = GFP-positive cells; value = 92.5%
Structure (SMILES) = N[C@@H](CCC(=O)N[C@@H](CS)C(=O)NCC(=O)O)C(=O)O; measurement = pseudovirus infection; value = 75.9%

Repeated from above (series 1):
Structure (SMILES) = CCOc1cc(CC(=O)N[C@@H](CC(C)C)c2ccccc2N2CCCCC2)ccc1C(=O)O; value = 5%
Structure (SMILES) = Cc1ccc2c(-c3ccccc3)nc(=O)n(C(C)C)c2c1; value = 6.2%
Structure (SMILES) = COc1cc(/C=C/C(=O)O)ccc1O; value = 4.55%
Structure (SMILES) = O=C(c1cc(S(=O)(=O)Nc2ccccc2F)c(F)cc1Cl)N1CCN2CCC[C@@H]2C1; value = -0.06%
Structure (SMILES) = COc1ccc2cc(-c3nc(-c4ccc([S+](C)[O-])cc4)[nH]c3-c3ccncc3)ccc2c1 (stereo not drawn); value = 3.64%
Structure (SMILES) = O=[N+]([O-])c1cc(Cl)ccc1S(=O)(=O)N1CCN(Cc2ccccc2)CC1; value = 8.11%
Structure (SMILES) = N#CC(c1ccccc1)(c1ccccc1)c1ccccc1Cl; value = 8.72%
